Results pooled from the literature.
± gives the spread as reported.
Technique: steady-state kinetics
B1: TENT2 (Homo sapiens, UniProt Q6PIY7); chain MFPNSILGRPPFTPNHQQHNNFFTLSPTVYSHQQLIDAQFNFQNADLSRAVSLQQLTYGNVSPIQTSASPLFRGRKRLSDEKNLPLDGKRQRFHSPHQEPTVVNQIVPLSGERRYSMPPLFHTHYVPDIVRCVPPFREIAFLEPREITLPEAKDKLSQQILELFETCQQQISDLKKKELCRTQLQREIQLLFPQSRLFLVGSSLNGFGTRSSDGDLCLVVKEEPCFFQVNQKTEARHILTLVHKHFCTRLSGYIERPQLIRAKVPIVKFRDKVSCVEFDLNVNNIVGIRNTFLLRTYAYLENRVRPLVLVIKKWASHHQINDASRGTLSSYSLVLMVLHYLQTLPEPILPSLQKIYPESFSPAIQLHLVHQAPCNVPPYLSKNESNLGDLLLGFLKYYATEFDWNSQMISVREAKAIPRPDGIEWRNKYICVEEPFDGTNTARAVHEKQKFDMIKDQFLKSWHRLKNKRDLNSILPVRAAVLKR
B2: genB3 A452T/L401C/Q310N (Micromonospora echinospora, UniProt Q2MG50); chain MDSANLTNRGLVERARRVTAAENYDIGTRFSAMIQSGEGAWLTDVEGNRYVDLTASSGTIILGHRNQAVTEAITRQIRDFGTAFASTLSVPRVELAERLCERYECAEKVVFHKTGSEGTAMAARLARAATGRELILSCGYHGWHEWQLAGETFGYQQTTGVVGFGYNEKALAKMLEAFGNEVAGVLISPELLYFDVEFYQRMYALCARYDVPFMMDEVYTGFRAGPKGVHGLGVPADVVVVSKGLANGHSLAAVMGRRDIIDAYDVSGINGTYTREVPPMAAAMAVLDVLDTPGVYEHAEAMGRRLADGMREILTGEGIPNWVGGPALMFDTVLPNDDLGWEIYKTAHDFGVYFEDSGTQCVTTAFDEAAVDHALTAFRKATRQVIADRPDIAPTSGGELTEERKLDFAEETFGGLLRDDERTNALIDETIEKVVNRDRSIKPVLIPAQN
B3: protein (Thermotoga neapolitana, UniProt B9K712); chain MKMLYDLAKKRKTVRRFKKEKPPLEDLIYSLKVANEAPSGMNAQPWRFLIVEDEKLKGQIRRVCERSEKTFYENVRGRLKEWLDEKRFTWRKPFLKEAPYLLLVFSEKSAPYSRESVWLAVGYLLLALEEKGLGSVPYTPPDFREVEKLVNTPSELRLEVILPVGYPDDPKPKYPRNEVIVRYNTF
B4: PPIP5K2 (Homo sapiens, UniProt O43314); chain MSEAPRFFVGPEDTEINPGNYRHFFHHADEDDEEEDDSPPERQIVVGICSMAKKSKSKPMKEILERISLFKYITVVVFEEEVILNEPVENWPLCDCLISFHSKGFPLDKAVAYAKLRNPFVINDLNMQYLIQDRREVYSILQAEGILLPRYAILNRDPNNPKECNLIEGEDHVEVNGEVFQKPFVEKPVSAEDHNVYIYYPTSAGGGSQRLFRKIGSRSSVYSPESNVRKTGSYIYEEFMPTDGTDVKVYTVGPDYAHAEARKSPALDGKVERDSEGKEVRYPVILNAREKLIAWKVCLAFKQTVCGFDLLRANGQSYVCDVNGFSFVKNSMKYYDDCAKILGNIVMRELAPQFHIPWSIPLEAED
B5: enzyme (UniProt Q53796); chain MTEHPRAHTAHLRTARLELTPLDPAADARHLHHAYGDEEVMRWWTRPACADPAETERYLTSCAAAPGARLWTIRAPDGTVPGMAGLLGGTDVPGLTWLLRRDSWGHGYATEAAAAVVGHALEDGGLDRVEAWIEAGNRRSLAVAARVGLTERARLAQHYPHRPGPHEMVVLGKARAEEPLTTLAVITELPVRDVAATLRLVEAALGARTAFAIGDPPEFAEAALTPWSAGPRFRLAAVPGPGPVEPVRLHLDAAGTADSLHRRAVDAGARVDGPPVRRPWGRSEFVITLPEGHELTVSAPV
B6: DTYMK (Homo sapiens, UniProt P23919); chain MAARRGALIVLEGVDRAGKSTQSRKLVEALCAAGHRAELLRFPERSTEIGKLLSSYLQKKSDVEDHSVHLLFSANRWEQVPLIKEKLSQGVTLVVDRYAFSGVAFTGAKENFSLDWCKQPDVGLPKPDLVLFLQLQLADAAKRGAFGHERYENGAFQERALRCFHQLMKDTTLNWKMVDASKSIEAVHEDIRVLSEDAIRTATEKPLGELWK
B7: enzyme (Bacillus subtilis, UniProt P39639); chain MKTKEDMQELYFPTPKLIEWENGVRQYSTVRGDTEVLMSYVPPHTNVEPHQHKEVQIGMVVSGELMMTVGDVTRKMTALESAYIAPPHVPHGARNDTDQEVIAIDIKRLKADETYTSPEDYFLDIFKTRDLLPGMEVTFFVEDWVEIMLAKIPGNGGEMPFHKHRNEQIGICIGGGYDMTVEGCTVEMKFGTAYFCEPREDHGAINRSEKESKSINIFFPPRYNRAKAKKMKADE
B8: TRMT5 E394K (Homo sapiens, UniProt Q32P41); chain FSGRFLKLESHSITESKSLIPVAWTSLTQMLLEAPGIFLLGQRKRFSTMPETETHERETELFSPPSDVRGMTKLDRTAFKKTVNIPVLKVRKEIVSKLMRSLKRAALQRPGIRRVIEDPEDKESRLIMLDPYKIFTHDSFEKAELSVLEQLNVSPQISKYNLELTYEHFKSEEILRAVLPEGQDVTSGFSRIGHIAHLNLRDHQLPFKHLIGQVMIDKNPGITSAVNKINNIDNMYRNFQMEVLSGEQNMMTKVRENNYTYEFDFSKVYWNPRLSTEHSRITELLKPGDVLFDVFAGVGPFAIPVAKKNCTVFANDLNPESHKWLLYNCKLNKVDQKVKVFNLDGKDFLQGPVKEELMQLLGLSKERKPSVHVVMNLPAKAIKFLSAFKWLLDGQPCSSEFLPIVHCYSFSKDANPAEDVRQRAGAVLGISLEACSSVHLVRNVAPNKEMLCITFQIPASVLYKNQTRNPENHEDPPLKRQRTAEAFSDEKTQIVSNT
B9: enzyme (UniProt A0A2P1BT29); chain MNERFTLPAHSPALAALVPEFLDLARAASGDPAAEERDLAVWENLTEHVSLDYRFANPPVHGPGDWDTYDSRFVDPAGVEIGTLQGTGRILYERSSDAHLMMYYREQLTFPDGTAQTAGWVDGTAILGGAWQRFPILGSGGRYGSMIGLRSFQPTPEAPHSLYRTHLVLREIPGGHGLTDPEEIDAALSLLGAFVGPSVNPATGNGRLEPPVRAGRTA
Sequence of UniProt Q9ZGI2 (whole entry, looked up): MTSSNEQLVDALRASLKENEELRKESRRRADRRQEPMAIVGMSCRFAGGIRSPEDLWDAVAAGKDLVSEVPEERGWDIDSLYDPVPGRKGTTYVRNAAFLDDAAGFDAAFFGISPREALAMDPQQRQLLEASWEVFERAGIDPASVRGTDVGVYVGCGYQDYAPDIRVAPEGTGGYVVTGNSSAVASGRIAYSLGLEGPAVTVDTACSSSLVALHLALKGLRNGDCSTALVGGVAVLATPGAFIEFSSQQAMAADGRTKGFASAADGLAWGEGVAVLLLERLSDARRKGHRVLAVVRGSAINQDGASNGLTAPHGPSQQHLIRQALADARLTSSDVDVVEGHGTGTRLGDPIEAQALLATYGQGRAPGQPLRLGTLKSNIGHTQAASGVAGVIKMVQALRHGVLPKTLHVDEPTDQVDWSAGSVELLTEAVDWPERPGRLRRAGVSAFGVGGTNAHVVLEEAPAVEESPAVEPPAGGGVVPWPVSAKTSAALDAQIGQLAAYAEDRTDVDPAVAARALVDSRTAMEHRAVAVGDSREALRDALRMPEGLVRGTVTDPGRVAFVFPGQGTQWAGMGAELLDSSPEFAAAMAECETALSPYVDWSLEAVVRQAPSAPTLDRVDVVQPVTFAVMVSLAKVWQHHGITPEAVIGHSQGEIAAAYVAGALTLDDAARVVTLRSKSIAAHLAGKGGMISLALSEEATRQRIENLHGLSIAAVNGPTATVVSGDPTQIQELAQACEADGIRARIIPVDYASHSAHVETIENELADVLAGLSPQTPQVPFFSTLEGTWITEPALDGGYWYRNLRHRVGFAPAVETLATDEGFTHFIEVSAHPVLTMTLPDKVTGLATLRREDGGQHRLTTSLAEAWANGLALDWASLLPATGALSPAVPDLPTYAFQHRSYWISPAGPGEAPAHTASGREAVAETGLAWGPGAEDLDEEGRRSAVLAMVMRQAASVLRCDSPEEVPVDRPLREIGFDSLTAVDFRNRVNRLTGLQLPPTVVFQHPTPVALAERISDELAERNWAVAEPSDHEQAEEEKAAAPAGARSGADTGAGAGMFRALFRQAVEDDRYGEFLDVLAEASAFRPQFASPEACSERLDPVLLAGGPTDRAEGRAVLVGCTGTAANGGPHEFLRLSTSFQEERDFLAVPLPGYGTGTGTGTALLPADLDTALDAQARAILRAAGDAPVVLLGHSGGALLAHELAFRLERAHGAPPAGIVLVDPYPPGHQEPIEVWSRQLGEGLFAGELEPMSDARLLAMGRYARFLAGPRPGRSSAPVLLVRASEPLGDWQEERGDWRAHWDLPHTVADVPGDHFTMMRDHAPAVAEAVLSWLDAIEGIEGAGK
Sequence of UniProt B2RXH2 (whole entry, looked up): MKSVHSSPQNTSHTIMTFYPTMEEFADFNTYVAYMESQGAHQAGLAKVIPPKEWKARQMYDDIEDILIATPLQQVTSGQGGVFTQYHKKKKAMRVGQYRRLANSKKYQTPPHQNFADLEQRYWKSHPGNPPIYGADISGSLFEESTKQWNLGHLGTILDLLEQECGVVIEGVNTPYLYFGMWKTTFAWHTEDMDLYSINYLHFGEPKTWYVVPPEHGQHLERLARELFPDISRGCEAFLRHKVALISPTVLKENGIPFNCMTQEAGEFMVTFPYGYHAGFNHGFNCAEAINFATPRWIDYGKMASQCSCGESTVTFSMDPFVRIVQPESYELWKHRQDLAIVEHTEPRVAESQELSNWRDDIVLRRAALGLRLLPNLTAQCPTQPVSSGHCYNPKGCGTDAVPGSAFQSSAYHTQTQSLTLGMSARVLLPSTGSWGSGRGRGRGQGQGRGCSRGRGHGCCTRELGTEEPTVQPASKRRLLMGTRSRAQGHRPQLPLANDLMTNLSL

Molecule | substrate | pH | temperature | notes | together with | kcat
B1 (TENT2) | O=c1ccn([C@@H]2O[C@H](COP(=O)(O)OP(=O)(O)OP(=O)(O)O)[C@@H](O)[C@H]2O)c(=O)[nH]1 | pH 8 | 37 °C |  |  | 0.000248 ± 1.17e-05 s⁻¹
B2 (genB3 A452T/L401C/Q310N) | CN[C@@H]1[C@@H](O)[C@@H](O[C@@H]2[C@@H](O)[C@H](O[C@H]3O[C@H](CN)[C@@H](O)[C@H](OP(=O)(O)O)[C@H]3N)[C@@H](N)C[C@H]2N)OC[C@]1(C)O |  | 30 °C |  |  | 0.02 ± 0.00283 s⁻¹
B3 (protein) | N[C@@H](Cc1ccc(O)c(Br)c1)C(=O)O | pH 7.4 | 60 °C |  |  | 0.085 ± 0.005 s⁻¹
enzyme (Astragalus mongholicus, UniProt A0A977WMR2) | CC(C)(O)[C@@H]1CC[C@](C)([C@H]2[C@@H](O)C[C@@]3(C)[C@@H]4C[C@H](O[C@@H]5O[C@H](CO)[C@@H](O)[C@H](O)[C@H]5O)[C@H]5C(C)(C)[C@@H](O)CC[C@@]56C[C@@]46CC[C@]23C)O1 |  |  |  |  | 0.0003 s⁻¹
enzyme (Streptomyces venezuelae, UniProt Q9ZGI2) | CC[C@@H](O)[C@H](C)/C=C/C(=O)[C@H](C)C[C@H](C)[C@H](OC)[C@@H](C)C(=O)SCCNC(C)=O |  |  |  |  | 0.193 ± 0.004 s⁻¹
B4 (PPIP5K2) | O=P(O)(O)O[C@@H]1[C@@H](OP(=O)(O)O)[C@H](OP(=O)(O)OP(=O)(O)O)[C@@H](OP(=O)(O)O)[C@H](OP(=O)(O)OP(=O)(O)O)[C@@H]1OP(=O)(O)O |  |  |  |  | 0.19 ± 0.02 s⁻¹
CYP2C19 (Homo sapiens, UniProt P33261) | CC(C)(C)NC(CO)c1cc(Cl)c(N)c(C(F)(F)F)c1 | pH 7.4 | 37 °C | not purified |  | 0.00105 ± 4.43e-05 s⁻¹
enzyme (Streptomyces filamentosus, UniProt A0ABY4UVI6) | CC(C)C[C@H](NC(=O)c1cc(O)cc(-c2ccccn2)n1)C(=O)O | pH 8 | 30 °C |  |  | 0.0325 ± 0.000833 s⁻¹
KDM4E (Homo sapiens, UniProt B2RXH2) | C[C@H](N)C(=O)N[C@@H](CCCNC(=N)N)C(=O)N[C@@H](CCCC[N+](C)(C)C)C(=O)N[C@@H](CO)C(=O)N[C@H](C(=O)NCC(=O)NCC(=O)N[C@@H](CCCCN)C(=O)O)[C@@H](C)O | pH 7.5 | 37 °C |  |  | 0.076 ± 0.001 s⁻¹
CYP2C9 (Homo sapiens, UniProt P11712) | COc1ccc2c(c1)C(C)(C)C1=C(Cl)C(=O)C(Cl)=CC1=N2 | pH 7.4 | 37 °C |  |  | 0.0218 s⁻¹
B5 (enzyme) | Cc1c(N)nc([C@H](CC(N)=O)NC[C@H](N)C(N)=O)nc1C(=O)N[C@H](C(=O)N[C@H](C)[C@@H](O)[C@H](C)C(=O)N[C@H](C(=O)NCCc1nc(-c2nc(C(=O)NCCCCNC(=N)N)cs2)cs1)[C@@H](C)O)[C@@H](O[C@@H]1O[C@@H](CO)[C@@H](O)[C@H](O)[C@@H]1O[C@H]1O[C@H](CO)[C@@H](O)[C@H](OC(N)=O)[C@@H]1O)c1c[nH]cn1 | pH 7.5 | 30 °C |  |  | 0.2 ± 0.0333 s⁻¹
B6 (DTYMK) | Cc1cn([C@H]2C[C@H](O)[C@@H](COP(=O)(O)O)O2)c(=O)[nH]c1=O |  |  |  | ATP 2 mM, Mg2+ 2 mM | 3 ± 0.1 s⁻¹
B7 (enzyme) | O=C(O)C(=O)C[C@H]1C=C[C@H](O)C=C1 | pH 8.1 |  | apparent |  | 24.5 s⁻¹
B8 (TRMT5 E394K) | C[S+](CC[C@H](N)C(=O)O)C[C@H]1O[C@@H](n2cnc3c(N)ncnc32)[C@H](O)[C@@H]1O |  | 37 °C |  |  | 0.023 ± 0.003 s⁻¹
curN (Lyngbya majuscula, UniProt Q6DND9) | CC1=[N+]2C(=C(CCl)c3ccc(C)n3[B-]2(F)F)C=C1 | pH 8 | 30 °C |  |  | 2.9 ± 0.6 s⁻¹
B9 (enzyme) | C=C1OC(=O)C(C(=O)CC[C@H](C)C(=O)/C=C/C=C/C(C)=C/C)=C1O | pH 8 | 30 °C |  |  | 0.627 ± 0.0237 s⁻¹
